Experimental data from different studies.
Each line is one published result; not all experiments were run side by side. Numbers after ± are the reported error.
Nuclear receptor subfamily 2 group C member 2 ligand-binding domain: Nuclear receptor subfamily 2 group C member 2, ligand-binding domain (Homo sapiens, UniProt P49116)

For CSCC[C@H](NC(=O)[C@H](CC(C)C)NC(=O)[C@H](C)NC(=O)[C@H](CCCNC(=N)N)NC(=O)[C@H](Cc1ccc(OP(=O)(O)O)cc1)NC(=O)[C@H](Cc1ccccc1)NC(=O)[C@H](CC(N)=O)NC(=O)[C@H](CO)NC(=O)[C@H](CC(=O)O)NC(=O)[C@@H](NC(=O)[C@@H]1CCCN1C(=O)[C@H](CO)NC(=O)[C@@H]1CCCN1C(=O)[C@H](CC(C)C)NC(=O)c1ccc2c(c1)C(=O)OC21c2ccc(N(C)C)cc2Oc2cc(N(C)C)ccc21)[C@@H](C)O)C(=O)N[C@@H](CC(=O)O)C(=O)N[C@@H](CCC(=O)O)C(=O)N[C@@H](CCC(=O)O)C(=O)N[C@@H](CC(=O)O)C(=O)O, the Kd was 1.36 µM (SH2B3, SH2 domain (Homo sapiens, UniProt Q9UQQ2); binding).
CC[C@H](C)[C@H](NC(=O)[C@H](CC(=O)O)NC(=O)[C@@H](NC(=O)[C@H](CC(N)=O)NC(=O)[C@H](CC(=O)O)NC(=O)[C@H](CC(=O)O)NC(=O)[C@H](Cc1ccccc1)NC(=O)[C@H](CC(C)C)NC(=O)[C@@H](N)CC(N)=O)[C@@H](C)CC)C(=O)N[C@@H](Cc1ccccc1)C(=O)N[C@@H](C)C(=O)N[C@@H](CC(=O)O)C(=O)N[C@@H](CC(C)C)C(=O)N[C@H](C(=O)O)[C@@H](C)O has a Kd of 38.4 ± 1.34 µM (SNX27, FERM domain (Homo sapiens, UniProt Q96L92); pH 7.5).
CC(C)C[C@H](N)C(=O)O gave a Kd of 0.5 µM (livJ (Escherichia coli, UniProt P0AD96, Q172C); fluorescence titration).
O=C(O[C@@H]1Cc2c(O)cc(O)cc2O[C@@H]1c1cc(O)c(O)c(O)c1)c1cc(O)c(O)c(O)c1 gave a Kd of 0.197 ± 0.06 µM (Small ribosomal subunit protein uS2 (RPSA, Homo sapiens, UniProt P08865); binding).
For CC(C)C[C@H](NC(=O)[C@@H](NC(=O)[C@H](CO)NC(=O)[C@H](CO)NC(=O)[C@@H](NC(=O)[C@H](CC(=O)O)NC(=O)[C@H](CC(C)C)NC(=O)[C@@H]1CCCN1C(=O)[C@H](CO)NC(=O)c1ccc2c(c1)C(=O)OC21c2ccc(N(C)C)cc2Oc2cc(N(C)C)ccc21)[C@@H](C)O)C(C)C)C(=O)N[C@@H](Cc1ccc(OP(=O)(O)O)cc1)C(=O)N[C@H](C(=O)N[C@@H](C)C(=O)N[C@H](C(=O)N[C@@H](CCC(N)=O)C(=O)N1CCC[C@H]1C(=O)N[C@@H](CC(N)=O)C(=O)N[C@@H](CCC(=O)O)C(=O)N[C@@H](CC(=O)O)C(=O)O)C(C)C)[C@@H](C)O, the Kd was 0.579 µM (Growth factor receptor-bound protein 7, SH2 domain (GRB7, Homo sapiens, UniProt Q14451); binding).
The Kd of CN1C(=O)CCS(=O)(=O)C1c1ccc(Cl)cc1 (centres unmarked) is reported as 5.2e-05 µM (Nuclear receptor subfamily 2 group C member 2 ligand-binding domain; SPR imaging).
With N=C(N)NOCC[C@H](N)C(=O)O the Kd was 5600 ± 1000 µM (Peptidylarginine deiminase, truncated (Porphyromonas gingivalis, UniProt Q9RQJ2); binding).
CC[C@H](C)[C@@H]1NC(=O)[C@H](Cc2c[nH]c3ccccc23)NC(=O)[C@H](Cc2ccc(O)cc2)NC(=O)CSC[C@@H](C(N)=O)NC(=O)[C@H]([C@@H](C)O)NC(=O)[C@H](CO)NC(=O)[C@H](C(C)C)NC(=O)[C@H](Cc2ccc(O)cc2)NC(=O)[C@H](CCCNC(=N)N)NC(=O)[C@H](Cc2ccc(O)cc2)NC(=O)[C@H]([C@@H](C)O)NC(=O)[C@H]([C@@H](C)O)NC(=O)[C@H](Cc2c[nH]c3ccccc23)NC(=O)[C@H](CO)NC(=O)[C@H](CC(N)=O)NC(=O)[C@H](CO)NC1=O gave a Kd of 1.77 ± 0.17 µM (uncharacterized protein, C-terminal tail deletion (Thermochaetoides thermophila, UniProt G0S0E6+G0S709); binding, ITC; 25 °C, Vps26 tail removed, Chaetomium thermophilum).
C=C(C)[C@@H]1CC[C@]2(C(=O)NCCCCCCCC(=O)N(CCCC3(C)N=N3)CC(=O)O)CC[C@]3(C)C(CCC4[C@@]5(C)CC[C@H](O)C(C)(C)C5CC[C@]43C)C12 (some centres unmarked) has a Kd of 9.6 µM (Envelope glycoprotein gp160, HR2 peptide (Human immunodeficiency virus type 1 group M subtype B, UniProt P03377); binding).
With CC[C@H](C)[C@H](NC(=O)[C@H](Cc1ccc(OP(=O)(O)O)cc1)NC(=O)[C@H](CCC(=O)O)NC(=O)[C@@H]1CCCN1C(=O)[C@@H](NC(=O)[C@@H]1CCCN1C(=O)[C@H](CC(C)C)NC(=O)[C@H](Cc1ccccc1)NC(=O)[C@@H](NC(=O)[C@H](CC(=O)O)NC(=O)[C@H](CC(=O)O)NC(=O)c1ccc2c(c1)C(=O)OC21c2ccc(N(C)C)cc2Oc2cc(N(C)C)ccc21)[C@@H](C)O)C(C)C)C(=O)N[C@@H](CC(N)=O)C(=O)N[C@@H](CCC(N)=O)C(=O)N[C@@H](CO)C(=O)N[C@H](C(=O)N1CCC[C@H]1C(=O)N[C@@H](CCCCN)C(=O)N[C@@H](CC(=O)O)C(=O)O)C(C)C the Kd was 1.3 µM (Growth factor receptor-bound protein 10, SH2 domain (Homo sapiens, UniProt Q13322); binding).
The Kd of CN(C)c1ccc2c(-c3cc(C(=O)NCCOCCOCCCCCCCl)ccc3C(=O)[O-])c3ccc(=[N+](C)C)cc-3oc2c1 is reported as 0.32 ± 0.02 µM (dhaA (Rhodococcus rhodochrous, UniProt P0A3G2, H272F)).
The Kd of Nc1c2c(nc3sc4c(c13)CCCC4)CCCC2 is reported as 38.7 µM (Glideosome-associated protein 50 (GAP50, Plasmodium falciparum, UniProt Q8I2X3); binding, surface plasmon resonance; 1:1 binding model).
CSCC[C@H](NC(=O)CNC(=O)[C@H](Cc1ccccc1)NC(=O)[C@H](CC(=O)O)NC(=O)CNC(=O)c1ccc2c(c1)C(=O)OC21c2ccc(N(C)C)cc2Oc2cc(N(C)C)ccc21)C(=O)N[C@@H](CO)C(=O)N[C@@H](CCCNC(=N)N)C(=O)N[C@@H](CC(=O)O)C(=O)N[C@H](C(=O)N[C@@H](Cc1ccc(OP(=O)(O)O)cc1)C(=O)N[C@@H](CO)C(=O)N[C@H](C(=O)N[C@@H](CC(=O)O)C(=O)N[C@@H](Cc1ccc(O)cc1)C(=O)N[C@@H](Cc1ccc(O)cc1)C(=O)N[C@@H](CCCNC(=N)N)C(=O)N[C@H](C(=O)N[C@@H](CC(=O)O)C(=O)O)C(C)C)[C@@H](C)O)C(C)C gave a Kd of 1.79 µM (Src-like-adapter 2, SH2 domain (SLA2, Homo sapiens, UniProt Q9H6Q3); binding).
Cc1cc(C(C#N)c2ccc(Cl)cc2)c(Cl)cc1NC(=O)c1cc(I)cc(I)c1O (centres unmarked) has a Kd of 0.00325 µM (Nuclear receptor subfamily 2 group C member 2 ligand-binding domain; SPR imaging).
CC[C@H](C)[C@H](NC(=O)[C@H](Cc1ccc(OP(=O)(O)O)cc1)NC(=O)[C@H](CCC(=O)O)NC(=O)[C@H](Cc1c[nH]cn1)NC(=O)CNC(=O)[C@H](CC(=O)O)NC(=O)[C@H](CO)NC(=O)[C@H](CO)NC(=O)[C@@H](NC(=O)[C@H](CO)NC(=O)[C@H](CCC(=O)O)NC(=O)c1ccc2c(c1)C(=O)OC21c2ccc(N(C)C)cc2Oc2cc(N(C)C)ccc21)C(C)C)C(=O)N[C@@H](Cc1ccc(O)cc1)C(=O)N[C@H](C(=O)N[C@@H](CC(=O)O)C(=O)N1CCC[C@H]1C(=O)N[C@@H](CCSC)C(=O)N[C@@H](CCC(N)=O)C(=O)N[C@@H](CC(=O)O)C(=O)O)C(C)C has a Kd of 1.46 µM (Ras and Rab interactor 1, SH2 domain (RIN1, Homo sapiens, UniProt Q13671); binding).
Under Kd, CC(C)C[C@H](NC(=O)CNC(=O)[C@H](CCC(=O)O)NC(=O)[C@H](CCC(N)=O)NC(=O)[C@H](Cc1ccccc1)NC(=O)[C@@H]1CCCN1C(=O)[C@@H](NC(=O)[C@H](C)N)[C@@H](C)O)C(=O)N[C@@H](CCCNC(=N)N)C(=O)N[C@H](C(=O)N[C@@H](Cc1ccccc1)C(=O)N[C@@H](CCCCN)C(=O)N[C@@H](CCCCN)C(=O)N[C@@H](CCCCN)C(=O)N[C@@H](CCCCNC(=O)CCCCCNC(=S)Nc1ccc2c(c1)C(=O)OC21c2ccc(O)cc2Oc2cc(O)ccc21)C(N)=O)[C@@H](C)O is recorded as “no binding” (E3 ubiquitin-protein ligase XIAP, BIR1 domain (XIAP, Homo sapiens, UniProt P98170); fluorescence polarization; 30 min, pH 7.5, together with: 20 nM FITC-labeled peptide).
For CC[C@H](C)[C@H](NC(=O)[C@H](CCCNC(=N)N)NC(=O)CNC(=O)[C@H](Cc1c[nH]c2ccccc12)NC(=O)[C@@H]1CSC[C@@H](NC(=O)[C@H](Cc2ccc(O)cc2)NC(=O)[C@H](Cc2c[nH]c3ccccc23)NC(=O)[C@H](CC(C)C)NC(=O)CNC(=O)[C@H](CCCNC(=N)N)NC(=O)c2ccc3c(c2)C(=O)OC32c3ccc(O)cc3Oc3cc(O)ccc32)C(=O)N[C@@H](CC(C)C)C(=O)N[C@@H](CO)C(=O)N1)C(=O)NCC(=O)N[C@@H](CCCNC(=N)N)C(=O)N[C@@H](CCCNC(=N)N)C(=O)NCCCOCCOCCOCCCNC(=O)CCC(=O)NCCCOCCOCCOCCCNC(=O)CCC(=O)NCCCOCCOCCOCCCNC(=O)CCC(=O)N[C@@H](C)C(=O)O, the Kd was over 300 µM (Sortase B (srtB, Staphylococcus aureus, UniProt Q2FZE3); binding, fluorescence polarization; pH 7.5).
For CC[C@H](C)[C@H](NC(=O)[C@H](CCC(N)=O)NC(=O)[C@@H](NC(=O)[C@@H]1CCCN1C(=O)[C@@H](NC(=O)[C@H](CO)NC(=O)[C@H](Cc1ccccc1)NC(=O)[C@@H]1CCCN1C(=O)[C@H](CCC(N)=O)NC(=O)[C@@H](N)CCSC)[C@@H](C)CC)C(C)C)C(=O)N[C@H](C(=O)N[C@@H](CC(C)C)C(=O)N[C@@H](CCC(N)=O)C(=O)NCC(=O)N[C@@H](CO)C(=O)N[C@@H](CCCNC(=N)N)C(=O)N[C@@H](CCCNC(=N)N)C(=O)N[C@@H](CCCNC(=N)N)C(=O)N[C@@H](CCC(N)=O)C(=O)NCC(=O)N[C@@H](CCCNC(=N)N)C(N)=O)[C@@H](C)O, the Kd was 0.32 µM (Kcnma1 (Mus musculus, UniProt Q08460); ion current, blocker, inside-out patch clamp; Xenopus oocytes; +100 mV, together with: 10 µM cytosolic Ca2+).
The Kd of CSCC[C@H](NC(=O)[C@H](CC(=O)O)NC(=O)c1ccc2c(c1)C(=O)OC21c2ccc(N(C)C)cc2Oc2cc(N(C)C)ccc21)C(=O)N[C@@H](CO)C(=O)N[C@@H](CCCCN)C(=O)N[C@@H](CC(=O)O)C(=O)N[C@@H](CCC(=O)O)C(=O)N[C@@H](CO)C(=O)N[C@H](C(=O)N[C@@H](CC(=O)O)C(=O)N[C@@H](Cc1ccc(OP(=O)(O)O)cc1)C(=O)N[C@H](C(=O)N1CCC[C@H]1C(=O)N[C@@H](CCSC)C(=O)N[C@@H](CC(C)C)C(=O)N[C@@H](CC(=O)O)C(=O)N[C@@H](CCSC)C(=O)N[C@@H](CCCCN)C(=O)N[C@@H](CC(=O)O)C(=O)O)C(C)C)C(C)C is reported as 0.597 µM (Tyrosine-protein kinase Lyn, SH2 domain (LYN, Homo sapiens, UniProt P07948); binding).
For Cc1cn([C@H]2C[C@H](O)[C@@H](COP(=O)(O)OP(=O)(O)OP(=O)(O)O)O2)c(=O)[nH]c1=O, the Kd was 110 ± 10 µM (DNA polymerase I, Klenow fragment (polA, Escherichia coli, UniProt P00582, C907S/D424A/E710A/L744C); nucleotide incorporation, substrate, single-turnover rapid quench; together with: radiolabelled primer-template DNA).

Excerpt of the above:
For CC(C)C[C@H](NC(=O)[C@@H](NC(=O)[C@H](CO)NC(=O)[C@H](CO)NC(=O)[C@@H](NC(=O)[C@H](CC(=O)O)NC(=O)[C@H](CC(C)C)NC(=O)[C@@H]1CCCN1C(=O)[C@H](CO)NC(=O)c1ccc2c(c1)C(=O)OC21c2ccc(N(C)C)cc2Oc2cc(N(C)C)ccc21)[C@@H](C)O)C(C)C)C(=O)N[C@@H](Cc1ccc(OP(=O)(O)O)cc1)C(=O)N[C@H](C(=O)N[C@@H](C)C(=O)N[C@H](C(=O)N[C@@H](CCC(N)=O)C(=O)N1CCC[C@H]1C(=O)N[C@@H](CC(N)=O)C(=O)N[C@@H](CCC(=O)O)C(=O)N[C@@H](CC(=O)O)C(=O)O)C(C)C)[C@@H](C)O, the Kd was 0.579 µM (Growth factor receptor-bound protein 7, SH2 domain (GRB7, Homo sapiens, UniProt Q14451); binding).
The Kd of CN1C(=O)CCS(=O)(=O)C1c1ccc(Cl)cc1 (centres unmarked) is reported as 5.2e-05 µM (Nuclear receptor subfamily 2 group C member 2 ligand-binding domain; SPR imaging).
